# Measurements pooled from the literature.
# Numbered parts are unrelated; each lists some results of a single study. Changes are numbered by the printed parent chain.

# Study 1
# Target: CREB3L4, bZIP domain (human)
# Method: DHFR protein complementation
# Matrix: yeast
# Setting: single substitutions, most at no-binding floor
# Baseline: wild-type JUN-FOS pair
# Direction: higher = stronger binding
# Starting sequence: JUN, bZIP domain (human); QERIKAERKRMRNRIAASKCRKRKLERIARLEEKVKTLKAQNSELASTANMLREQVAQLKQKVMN; partner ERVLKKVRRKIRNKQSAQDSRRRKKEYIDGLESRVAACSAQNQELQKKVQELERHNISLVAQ
Variant,binding fitness
L31C,-1.36 natural log
A29I,-1.61 natural log
Q55F,-1.36 natural log
S43C,-1.36 natural log
V56S,-1.41 natural log
L52I,-1.48 natural log
T37A,-1.4 natural log
K34W,-1.56 natural log
E44H,-1.42 natural log
E54K,-1.23 natural log

# Study 2
# Target: Centromere-binding protein 1, full length, N-terminal tag (CBF1, Saccharomyces cerevisiae, UniProt P17106, residues 1-351)
# UniProt P17106, sequence (whole entry, looked up): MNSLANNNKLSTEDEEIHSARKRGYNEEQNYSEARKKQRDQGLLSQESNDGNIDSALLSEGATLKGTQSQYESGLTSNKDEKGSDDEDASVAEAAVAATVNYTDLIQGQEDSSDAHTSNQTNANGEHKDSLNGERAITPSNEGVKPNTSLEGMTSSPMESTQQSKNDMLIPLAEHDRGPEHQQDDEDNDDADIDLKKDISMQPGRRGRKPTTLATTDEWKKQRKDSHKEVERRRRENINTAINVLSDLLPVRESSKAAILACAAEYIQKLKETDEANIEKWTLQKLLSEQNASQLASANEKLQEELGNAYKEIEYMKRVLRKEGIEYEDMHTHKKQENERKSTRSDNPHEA
# Method: protein-binding microarray
# Form: double-stranded DNA, one strand shown
# Matrix: in vitro
# Concentration: 0.8 µM
# Setting: whole 60-bp probe, no competitor
# Direction: higher = stronger binding
# Shared flanks, not repeated: … GTCTTGATTCGCTTGACGCTGCTG
Oligonucleotide,fluorescence intensity
CTAGAAATATTTCAGCATGTGATGTGGCTGAAATTC,2840 a.u.
GAAAACGTACATGGGTACGTGCACCGGTATTGGTAG,531 a.u.
CTACAAAAGTACAAACACGGGGAAAGAGAGCCATTC,520 a.u.
GAAGGCCAACAAATACTTGGTCACAGAATGCAATAG,522 a.u.
GAAATCCAGTGAATACACGTGTATATTTGACGGTAG,3490 a.u.
CTAGATGATGACGACCACGACAACTGGTGTCATTTC,488 a.u.
GAATTCCGTATTTTTCACGCCATTAGAAACATTTAG,595 a.u.
GAAAGCCCATACAACCTGATGACGAGAACGTGCTAG,638 a.u.
CTAATACATACTGCCCTCCTGATTACTTTAAACTTC,551 a.u.
CTAAGGCTATATATATACGTGGTGAAATGAAATTTC,568 a.u.
CTACTGAAAAAAATTCACATGTGTGTTGTACTTTTC,654 a.u.
GAATCGAAAGAAGGCCGCATGACGTGGAGCAATTAG,581 a.u.
CTAGAGCAAGATACTGAGCACGTGAATCGAGGATTC,7690 a.u.

# Study 3
# Target: CCNB2, cyclin fold, Cln2 fusion (human)
# Method: yeast growth competition, sequencing
# Matrix: yeast
# Setting: weak parent motif
# Baseline: not given
# Direction: higher = stronger binding
# Starting sequence: ORC1 docking peptide (human); PRARKRLELGNLG
Variant,normalised enrichment score
PRAPKRLELGNLG [R4P],0.298
PRARKRLELGDLG [N11D],0.237
PRARKRLELKNLG [G10K],0.272
PRARKRLRLGNLG [E8R],0.301
LRARKRLELGNLG [P1L],0.417
PRARKRRELGNLG [L7R],0.795
PRARKREELGNLG [L7E],0.361
PRARKRLELGLLG [N11L],0.919
PRARKRLELGNLR [G13R],0.548
PRASKRLELGNLG [R4S],0.459
PRARWRLELGNLG [K5W],0.342
PPARKRLELGNLG [R2P],0.149
PRARKRLWLGNLG [E8W],0.822
PRARKLLELGNLG [R6L],1.29
PRARKRLEEGNLG [L9E],0.0675
PRARKRLVLGNLG [E8V],0.692
PVARKRLELGNLG [R2V],0.298
PRARKRLELGQLG [N11Q],-0.287
PRRRKRLELGNLG [A3R],0.284

# Further values, each from its own experiment
Molecule,target,test,test system,conditions,scale,endpoint,result
"PhoQ, residues 284 288 289 292 302 303 GLASVI","PhoP, residues 12 14 15 18 19 IQFRS (Escherichia coli, UniProt P23836)","Sort-seq, refers to: YFP reporter",E. coli,"PhoQ-PhoP variant library, together with: 10 µM Mg2+","baseline: high Mg2+ state, higher = stronger signaling",fold induction,16.8

# Repeated from above (study 3):
Variant,normalised enrichment score
PRARKRLELGNLR [G13R],0.548
PRASKRLELGNLG [R4S],0.459
PRARWRLELGNLG [K5W],0.342
PPARKRLELGNLG [R2P],0.149
PRARKRLWLGNLG [E8W],0.822
PRARKLLELGNLG [R6L],1.29
